Results of several laboratories.
Compare with care: the assays were run in different laboratories. ± marks the error that the study gave.
Target: Metallo-beta-lactamase type 2 (blaNDM-1, Klebsiella pneumoniae, UniProt C7C422)
Chain of UniProt C7C422 (whole entry, looked up): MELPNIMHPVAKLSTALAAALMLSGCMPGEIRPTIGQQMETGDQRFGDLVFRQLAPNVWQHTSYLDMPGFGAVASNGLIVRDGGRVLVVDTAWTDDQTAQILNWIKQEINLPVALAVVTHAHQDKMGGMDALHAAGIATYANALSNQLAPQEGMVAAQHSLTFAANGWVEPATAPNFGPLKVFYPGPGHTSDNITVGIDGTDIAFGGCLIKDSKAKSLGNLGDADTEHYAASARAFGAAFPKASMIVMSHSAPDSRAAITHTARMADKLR
Read-out: enzyme activity
Mode: inhibitor

Structure (SMILES) | method | pH | setting | IC50 [µM]
O=C(O)CN(CCO)CCO | fluorescence | – | – | > 200
O=C(O)c1nc[nH]c1C(=O)Nc1ccccc1 | fluorescence | – | with preincubation | > 1000
CN(C)c1ccc2c(c1)C(=O)N(C(CS)C(N)=O)C2=O (stereo not drawn) | – | pH 7 | – | 10
O=C(O)CNCP(=O)(O)O | fluorescence | – | – | 75
COCc1c(C(=O)O)nnn1Cc1c(F)cccc1Cl | fluorescence | – | with preincubation | 196
CCCn1nnc(-c2ccccc2NC(=O)[C@H](C)CS)n1 | fluorescence | – | with preincubation | 0.83
O=[N+]([O-])c1c(Br)c(Cl)c2cccnc2c1O | – | pH 7.5 | – | 1.03
Cn1nnc(-c2ccccc2NC(=O)CCS)n1 | fluorescence | – | with preincubation | 19.5
NC(=O)CN(CC(=O)O)CC(=O)O | fluorescence | – | – | 2.3
N[C@@H](CN[C@@H](CN[C@@H](CC(=O)O)C(=O)O)C(=O)O)C(=O)O | – | – | Zn2+ 10 µM supplemented | 13 ± 0.2
Cn1nnc(-c2cccc(NC(=O)CS)c2)n1 | fluorescence | – | with preincubation | 3.22
O=C(O)C(c1ccccc1)n1cnnn1 (stereo not drawn) | fluorescence | – | with preincubation | > 1000
CC(C)Cn1nnc(-c2ccccc2NC(=O)[C@H](C)CS)n1 | fluorescence | – | with preincubation | 2.59
CN[C@H](CC(C)C)C(=O)N[C@H]1C(=O)N[C@@H](CC(N)=O)C(=O)N[C@H]2C(=O)N[C@H]3C(=O)N[C@H](C(=O)N[C@H](C(=O)O)c4cc(O)cc(O)c4-c4cc3ccc4O)[C@H](O)c3ccc(c(Cl)c3)Oc3cc2cc(c3O[C@@H]2O[C@H](CO)[C@@H](O)[C@H](O)[C@H]2O[C@H]2C[C@](C)(NCc3ccc(C(=O)OCCCCCCN(Cc4ccccn4)Cc4ccccn4)cc3)[C@H](O)[C@H](C)O2)Oc2ccc(cc2Cl)[C@H]1O | absorbance | – | – | 0.6
CC(C)Cc1cc(C(=O)O)nc2[nH][nH]c(=O)c12 | fluorescence | – | with preincubation | > 1000
